Measurements of several laboratories.
Numbered parts are unrelated; each lists some results of a single study.

Study 1 — method: universal PBM; form: double-stranded DNA, one strand shown; medium: in vitro; concentration: not given; direction: higher = stronger binding
Target: Sal-like protein 4, full length isoform B (SALL4, Homo sapiens, UniProt Q9UJQ4-2, residues 1-616)
Notes: 8-mer, flanks averaged, mean of replicates
For `CTGAAGTC`, the E-score was -0.0757.
With `CCGTCCAA` the E-score was -0.0296.
The E-score of `CCCCTGAC` is reported as -0.212.
`AAGAGCGC` gave an E-score of -0.129.
`AGGAATAT` gave an E-score of 0.269.
`CAGTATCG` gave an E-score of -0.0229.
The E-score of `CGTACCAA` is reported as -0.0281.
`ACCTTACG` has an E-score of -0.0326.
With `ACCGTCGG` the E-score was -0.284.
For `CCACACTC`, the E-score was -0.0597.
The E-score of `GCAAATTA` is reported as 0.174.
`TAGGTAAA` gave an E-score of 0.203.
`AGCCGGGC` gave an E-score of -0.412.
For `CCTCCTGC`, the E-score was -0.223.
With `CGGATCCA` the E-score was 0.00119.

Study 2 — method: protein-binding microarray; form: double-stranded DNA, one strand shown; medium: in vitro; concentration: 2540 nM top; notes: 60-bp whole probe; with: salmon DNA 0.4 mg/ml; relative to: random background probes; direction: higher = stronger binding; all sequences stand within: GCCTAGCAC … GTCTTGATTCGCTTGACGCTGCTG
Target: Interferon regulatory factor 3, full length, phosphomimetic (IRF3, Homo sapiens, UniProt Q14653, residues 1-427, S386D/S396D/S398D/S402D/T404D/S405D)
Residues (chain): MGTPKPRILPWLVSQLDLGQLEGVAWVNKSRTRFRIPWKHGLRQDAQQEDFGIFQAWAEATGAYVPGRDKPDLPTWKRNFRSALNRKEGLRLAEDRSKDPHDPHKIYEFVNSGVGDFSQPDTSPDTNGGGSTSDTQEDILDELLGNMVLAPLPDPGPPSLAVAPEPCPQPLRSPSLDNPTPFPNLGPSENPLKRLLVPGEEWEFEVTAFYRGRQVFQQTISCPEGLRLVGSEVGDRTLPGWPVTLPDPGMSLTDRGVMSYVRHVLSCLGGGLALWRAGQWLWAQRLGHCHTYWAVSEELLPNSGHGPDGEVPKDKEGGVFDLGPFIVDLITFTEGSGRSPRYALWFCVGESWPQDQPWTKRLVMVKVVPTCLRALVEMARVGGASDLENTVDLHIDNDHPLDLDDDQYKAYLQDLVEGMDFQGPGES
For `TTGTATCTGGGTTCCCCCCCGTGCTAG`, “fitted relative affinity” read 0.142 z-score.
For `TTAGGTATCCTTCTCATTTAGTGCTAG`, “fitted relative affinity” read 7.52 z-score.
`TTAGGTATCGTCTATCGGTTAGTGCTA`: “fitted relative affinity” 0.394 z-score.
`AGTATGTTCACTATTTAAGAGTGCTAG` — result for “fitted relative affinity”: 0.877 z-score.
Under “fitted relative affinity”, `TTATGTCTCCTTATCCTTTAGTGCTAG` is recorded as 2.81 z-score.
`GAGAATTTCCACTTTGACTTGTGCTAG`: “fitted relative affinity” 1.65 z-score.
`TTAGGTTTCGGGATCGGTTAGTGCTAG` — result for “fitted relative affinity”: 4.66 z-score.
`GACGATATCGGGACTGGAGTCGTGCTA`: “fitted relative affinity” 0.412 z-score.
For `ACCTATAGGTTGTTTCTAATAGTGCTA`, “fitted relative affinity” read 0.837 z-score.
Under “fitted relative affinity”, `TTAGGTATCCTTATGCTTTAGTGCTAG` is recorded as 3.7 z-score.
`TTAGATTTCAGTTCCGATCAGTGCTAG`: “fitted relative affinity” 3.16 z-score.
`GACGATATCGGGTCTCGAGACGTGCTA`: “fitted relative affinity” 0.491 z-score.
Under “fitted relative affinity”, `GACGATATCAGTCTCGAGGCGTGCTAG` is recorded as 1.04 z-score.
For `TTAAGTTTCGGGACTGGGTTAGTGCTA`, “fitted relative affinity” read 4.42 z-score.
`TCAGTCCTCTCTCTATTACTGTGCTAG` — result for “fitted relative affinity”: 0.74 z-score.
For `TCAACTCTGTGCTTTCCTACTGTGCTA`, “fitted relative affinity” read 0.793 z-score.
For `GGCGATTTCAGACTGGAGACGTGCTAG`, “fitted relative affinity” read 0.524 z-score.
`TTTTTTTTTTTTGTATTTTTGTGCTAG` — result for “fitted relative affinity”: 1.81 z-score.
`TTATGACTGGGTTTCGGTTAGTGCTAG` — result for “fitted relative affinity”: 3.23 z-score.

Study 3 — method: protein binding microarray; form: double-stranded DNA, one strand shown; medium: in vitro; concentration: not given; relative to: not given; direction: higher = stronger binding
Target: Histone acetyltransferase KAT6A, winged helix 2, GST fusion (KAT6A, Homo sapiens, UniProt Q92794, residues 85-181)
Notes: 8-mer, flanks averaged, mean of 2 arrays, mostly near background
Construct (chain): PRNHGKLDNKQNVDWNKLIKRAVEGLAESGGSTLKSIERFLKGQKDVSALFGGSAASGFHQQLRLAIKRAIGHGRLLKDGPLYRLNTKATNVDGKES
With `AAAGCGCG` the E-score was 0.0687.
`CAGACCCA` has an E-score of 0.00529.
With `AAAACGAT` the E-score was -0.116.
The E-score of `GACCTTGA` is reported as -0.0129.
The E-score of `CGGACACG` is reported as 0.17.
For `CGGACGAG`, the E-score was 0.173.
The E-score of `AGGGTAAC` is reported as -0.164.
The E-score of `AACGATCT` is reported as -0.0542.
The E-score of `GTGTGTCA` is reported as 0.0509.
`CTACGCTA` has an E-score of -0.0928.
With `AGTCAGAT` the E-score was -0.0601.
`AGGGCATA` gave an E-score of 0.0485.
The E-score of `ACGGCTAA` is reported as 0.0908.
`ACAGCCGT` has an E-score of 0.0315.
`AGGGATTC` has an E-score of -0.0694.

Study 4 — method: RNA Bind-n-Seq; form: RNA; medium: in vitro; concentration: 1 µM; notes: whole 134-nt RNA, ends assumed; with: 150 mM KCl; relative to: input library; direction: higher = stronger binding
Target: Ras GTPase-activating protein-binding protein 1, C-terminal RGG region (G3BP1, Homo sapiens, UniProt Q13283)
Sequence of UniProt Q13283 (whole entry, looked up): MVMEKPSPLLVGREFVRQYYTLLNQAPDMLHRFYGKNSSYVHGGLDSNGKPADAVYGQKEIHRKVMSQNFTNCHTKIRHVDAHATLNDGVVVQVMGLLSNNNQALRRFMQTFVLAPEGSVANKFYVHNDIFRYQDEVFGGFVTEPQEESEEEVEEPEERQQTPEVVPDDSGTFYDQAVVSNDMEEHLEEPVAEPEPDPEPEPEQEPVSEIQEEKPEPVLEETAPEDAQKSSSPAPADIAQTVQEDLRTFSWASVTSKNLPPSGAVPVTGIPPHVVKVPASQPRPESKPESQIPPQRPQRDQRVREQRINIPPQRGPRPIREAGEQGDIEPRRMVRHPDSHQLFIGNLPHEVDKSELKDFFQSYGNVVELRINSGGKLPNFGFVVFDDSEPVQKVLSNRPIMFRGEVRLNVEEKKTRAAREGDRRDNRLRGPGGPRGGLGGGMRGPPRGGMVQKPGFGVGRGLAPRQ
For `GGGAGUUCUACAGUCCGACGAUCCUGUGCUACACAUCGUAUGUACCGAAUCGGGUUUUUUUGGGGUUUUUUUGGGUUUUUUUGGAAAGUAUUAUGUUACGCCGUUCGGAUCUGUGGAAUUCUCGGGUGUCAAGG`, the log2 enrichment was -0.978.
With `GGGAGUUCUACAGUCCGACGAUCCACAGACAACACGCACCCACACAGACACAGAGGGAAGGGGGUGGGAUGGGGACAGGGUGCACAGCAGGGCGGGGUAGGACCCCAGCCCCUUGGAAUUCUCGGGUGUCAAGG` the log2 enrichment was 0.814.
`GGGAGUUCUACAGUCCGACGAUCAGUCCUGUGCUACACAUCGUAUGUACCGAAUCGGAAAAAAAGGUUUUUGGAAAAAGGAAAGUAUUAUGUUACGCCGUUCGGAUCUGCACUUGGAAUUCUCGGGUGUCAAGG` has a log2 enrichment of -2.33.
`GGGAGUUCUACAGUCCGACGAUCUGGGAGGUGGAUUUUGUUUAUUUUUUUAGCUCAUUUCCAGGGGUGCGAAUUUUUUUUUAAUAUGUGUCAUGAAUAAAGUUGUUUUUGAAAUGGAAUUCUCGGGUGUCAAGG` gave a log2 enrichment of 2.57.
`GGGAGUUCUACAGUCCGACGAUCGUCCUGUGCUACACAUCGUAUGUACCGAAUCGGGUUUUUUUGGGUGGGUUUUUUUGGGAAAGUAUUAUGUUACGCCGUUCGGAUCUGCACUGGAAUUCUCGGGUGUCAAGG` has a log2 enrichment of 0.406.
With `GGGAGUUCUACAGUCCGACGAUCCAAGUCCUGUGCUACACAUCGUAUGUACCGAAUCGGGUUUGGGUUUGGGUUUGGGAAAGUAUUAUGUUACGCCGUUCGGAUCUGCACUUCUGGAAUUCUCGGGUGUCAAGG` the log2 enrichment was 2.36.
For `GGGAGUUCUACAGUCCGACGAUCUCCUCAAGUCCUGUGCUACACAUCGUAUGUACCGAAUCGGGGCGGCGGGCGGAAAGUAUUAUGUUACGCCGUUCGGAUCUGCACUUCCAGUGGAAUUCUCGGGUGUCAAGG`, the log2 enrichment was -0.494.
The log2 enrichment of `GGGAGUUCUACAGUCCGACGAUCUUGGACUAUGGAUCAGGUACUGUGCUCAGCAUCAGAAAAUGGGAUGACAAUGAACAGAGUAACAGGACUAUAUUUCUGAAAAAGGAUGAAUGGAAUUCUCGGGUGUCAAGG` is reported as -1.01.

Study 5 — method: RNA Bind-n-Seq; form: RNA; medium: in vitro; concentration: 365 nM; relative to: no-protein control; direction: higher = stronger binding
Target: RNA binding protein fox-1 homolog 2, RRM domain, GST-SBP tag (RBFOX2, Homo sapiens, UniProt O43251-10, residues 100-194)
Notes: natural RNA segment, single round, ends assumed
Residues (chain): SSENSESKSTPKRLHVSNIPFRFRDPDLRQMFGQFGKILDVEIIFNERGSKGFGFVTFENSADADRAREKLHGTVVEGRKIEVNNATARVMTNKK
Under “RBNS enrichment (R)”, `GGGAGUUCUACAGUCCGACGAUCCAGAGCACAUUAAAACCAAAGUCUGAUUGUUAAGCCUUUGACUCGGAUGUCUGUAGCAGUUCUAUGAAACAUUGCGUGUAAUGAUAGGGUAAAGAGAUUUCUAUAGAACGUGGAAUUCUCGGGUGCCAA` is recorded as 6.42.
Under “RBNS enrichment (R)”, `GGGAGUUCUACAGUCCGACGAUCUGGUGCCAGAAGGCCUCAUCCUACAUCCUGCUCUCCUGGAUUGUUAAGACUAUAAAGUACUACUGUAGGAUUGCAAUUUCCAUUCUUUUAAAUGGGUUAAAAAGAUGUUAUGGAAUUCUCGGGUGCCAA` is recorded as 0.435.
`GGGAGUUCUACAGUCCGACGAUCAUUAUGGGGAAUUGUACCAAAACAAGAACCAUAUAAAUGAUGCCUAGGGACAAGAAAGAGGAACAAUUCUAUAGCGCACAAUAAAGGAAACCUAAGAAUGGGAGUUACAAUGGAAUUCUCGGGUGCCAA`: “RBNS enrichment (R)” 0.51.
Under “RBNS enrichment (R)”, `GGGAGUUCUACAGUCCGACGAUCGCAAUGUAGUAAAAUGAAAGAGAAUUAAGAAAGGUUUUGAAUUCUUAUAACAUAUCCAGCCAUUUCAAUUUUGAUUGAAAUGAACUACAAAGAAUAGUGUUUGUCCCUAUUGGAAUUCUCGGGUGCCAA` is recorded as 0.559.
`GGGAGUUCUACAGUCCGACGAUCGGCAGAGAACUCAGGAGCUCUGCACUCAACGCCCCUGCUGCCUCGCCCCCUCCCUGACAGGUGUCUUGUCAAGGUGUAUCCUCCGAGUAUCUUGACCACCUGGCACCAUGUGGAAUUCUCGGGUGCCAA` — result for “RBNS enrichment (R)”: 0.34.
`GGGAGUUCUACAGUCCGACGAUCAUUCCCCAACCCUUCCUUAUGAGCAUUUUUAGAACAUUGGCUAAGACUAUUUUCCCCCAGUAGCGCUUUUUUCUGGAUUUGCAUUCAGGUGUUAUUCUUAAUGUUUCUGUUGGAAUUCUCGGGUGCCAA`: “RBNS enrichment (R)” 2.4.
`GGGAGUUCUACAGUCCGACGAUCUUCCCUCACUAAAAGCUUAAGCAAUUGUCAGUCAGAAUUCUGUUUGCUGAGUGCUGGUGCAGGCUUUAUGCUUUCCACGUGAAUUAAAUCAAAUGUGAAGUUGAUCCAGAUGGAAUUCUCGGGUGCCAA`: “RBNS enrichment (R)” 0.474.
For `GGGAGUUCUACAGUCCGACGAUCAUAUUUUCCGGUGCUGAUAUGUUUCCAGACUCCAGCGCAACCUGGGGUGCUCUCCAGACCCGUGCAGGGGCCGCCUGGGGUACACGGAAGGAAGUUGAGUCCUAGUGCAAUGGAAUUCUCGGGUGCCAA`, “RBNS enrichment (R)” read 0.523.
`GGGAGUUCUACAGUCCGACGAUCCUUCUAGCUCUCCAGGUGAGCAGAAAGACCAAAUAUCCAAAUAAAAGCCUGAAAGCCAUUGGUGAUCCAGGGGCACCUUCUCUUCAGCUUGACUGGGCGUCUUCCGCUGCUGGAAUUCUCGGGUGCCAA`: “RBNS enrichment (R)” 0.381.
`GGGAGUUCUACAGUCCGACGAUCUUCCAAGUGUGGUUACAAAUGAACCCAUGGAAUGAUGACUUCAUGUUCUUCUCGUGGGUUUGUGCCGUGCUGCUUUCCAAAUAGGUAUUGAAUUUAUGCAUUAGUCUGGUUGGAAUUCUCGGGUGCCAA` — result for “RBNS enrichment (R)”: 0.288.
Under “RBNS enrichment (R)”, `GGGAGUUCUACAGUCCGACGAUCCUAACCUUUUUCCCUCCUAAUUUGCUUUGAAAAAGUUUAGUAAUUCAAUUAAGCGUGAUUCUAUCUUAGAAGAAAUAAACUCAGUAUUAAUUCAUGUCUAAAUCACUGGGUGGAAUUCUCGGGUGCCAA` is recorded as 0.503.
`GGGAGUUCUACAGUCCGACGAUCAAUAGUCCCAUGCUGACUUUCUAUCUUCCUUUCUCAAACUGUCUUAGGAAGGACCUUCAGUGCAGAUCAGGUGCAGUAAUGGCUUUCUUGUCCCUUAAUUAUUCACCAGAUGGAAUUCUCGGGUGCCAA`: “RBNS enrichment (R)” 0.294.

Some of these lines once more (study 1):
For `CCACACTC`, the E-score was -0.0597.
The E-score of `GCAAATTA` is reported as 0.174.
`TAGGTAAA` gave an E-score of 0.203.
`AGCCGGGC` gave an E-score of -0.412.
For `CCTCCTGC`, the E-score was -0.223.
